Measured values gathered from unrelated publications.
“And” joins repeats or separate records; there may be more than shown. ± gives the spread as reported.
AKR1B1: Aldo-keto reductase family 1 member B1 (AKR1B1, Homo sapiens, UniProt P15121)
pyrD: Dihydroorotate dehydrogenase (quinone) (pyrD, Acinetobacter baumannii, UniProt B7GZW7)
Kir3.1/Kir3.4: Kir3.1/Kir3.4 (Homo sapiens, UniProt P48544+P48549)
T1: riboswitch RNA yjdF aptamer domain (Bacillus subtilis); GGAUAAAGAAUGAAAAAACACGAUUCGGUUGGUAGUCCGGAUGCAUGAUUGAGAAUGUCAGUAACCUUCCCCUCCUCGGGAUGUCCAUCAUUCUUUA
T2: aptamer DNA; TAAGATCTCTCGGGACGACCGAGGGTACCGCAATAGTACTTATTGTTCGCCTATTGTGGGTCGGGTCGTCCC

C=CC(=O)N1CCC(COCC(=O)N2CCN(c3nc(-c4cnc(N)nc4C(F)F)nc(N4CCOC[C@@H]4C)n3)CC2)CC1
remaining binding (TNNI3K (Homo sapiens, UniProt Q59H18); KINOMEscan; 1 µM): 97%

CN1C(=Cc2cc[n+](C)c3ccccc23)Sc2ccccc21
Kd (T1, riboswitch RNA yjdF aptamer domain (Bacillus subtilis); fluorescence titration): 0.00024 µM

CCOC(F)(F)c1nnc2cnc(-c3cnc(OCC(F)(F)F)c(F)c3)cn12
Hill slope (SCN2A (Homo sapiens, UniProt Q99250); persistent sodium current, patch clamp; with: ATX-II): 172

NCCCCC(=O)O
normalised MST signal (SLC6A6 (Homo sapiens, UniProt P31641, G62A); binding, microscale thermophoresis; 125 µM, room temperature, with: 50 nM labelled protein; higher = more binding): 0.0344

O=C(O)C1=CC(=C(c2ccc(O)c(C(=O)O)c2)c2ccc(O)c(C(=O)O)c2)C=CC1=O
remaining current (P2X purinoceptor 4 (P2RX4, Homo sapiens, UniProt Q99571); patch clamp; 4 µM, unit not given; reference: baseline): 0.887 ± 0.027

CC(=C/C(=O)O)/C=C/C=C(\C)C1C=C2C(C)(C)CCCC2(C)O1 (stereo not drawn)
plasma membrane localization (Rhodopsin (RHO, Homo sapiens, UniProt P08100, T17M); immunostaining, refers to: opsin; COS-7 transfected; 5.00 µM, unit not given; reference: surface over total stained cells): 0.42

C[C@]12C[C@H](O)[C@H]3[C@@H](CCC4=CC(=O)CC[C@@]43C)[C@@H]1CC[C@@H]2C(=O)CO
koff (CYP11B1 (Homo sapiens, UniProt P15538, V320A); nanodiscs; 25 °C, fast phase): 2.28 ± 0.3 s⁻¹

Nc1ccn([C@H]2C[C@H](O)[C@@H](COP(=O)(O)OP(=O)(O)OP(=O)(O)O)O2)c(=O)n1
Km (DNA polymerase beta (POLB, Homo sapiens, UniProt P06746); nucleotide incorporation, substrate, steady-state kinetics; with: AP-site primer-template): 2 µM

CC(C)C[C@H](N)C(=O)O
Bmax (snf (Aquifex aeolicus, UniProt O67854, L400A); scintillation proximity; 10 nM protein): 5260 ± 67 cpm/pmol LeuT

COc1cc(NC(=O)c2ccccn2)ccc1/N=N/c1ccccc1Cl
activation (GRM3 (Homo sapiens, UniProt Q14832); positive allosteric modulator, IP accumulation; HEK293; 30 µM, in the dark, with: low-dose orthosteric agonist): -23.6%

CN(C)C(=O)C(CCN1CCC(O)(c2ccc(Cl)cc2)CC1)(c1ccccc1)c1ccccc1
Hill coefficient (Calcium-activated potassium channel subunit alpha-1, with LRRC26 γ1 subunit (KCNMA1, Homo sapiens, UniProt Q12791); BK channel conductance, inside-out patch clamp; BKα/γ1, Vm -10 mV, nominally Ca2+-free): 1.33 ± 0.67

O=C(COP(=O)(O)O)[C@@H](O)[C@H](O)[C@H](O)COP(=O)(O)O
concentration for maximal activation (Pyruvate kinase PKM (PKM, Homo sapiens, UniProt P14618); enzyme activity, activator; with: AIM): 1190 ± 208 nM

c1ccc(-c2n[nH]cc2-c2ccnc3ccccc23)nc1
log2 fold change (Cyclin-dependent kinase 1 (CDC28, Candida albicans, UniProt P43063); kinase binding, competitor, MIB/MS competition, refers to: CDC28; Candida albicans cell lysate; 10 µM; reference: DMSO): 1.67

NC/C(=C\F)COc1cccc(Cn2c(=S)[nH]c(=O)c3[nH]cnc32)c1
inhibition (CACNA1C (Homo sapiens, UniProt Q13936); peak ion current, inhibitor, automated patch clamp; 100 µM, pulse 1): 33.6%

Nc1ncnc2c1ncn2[C@@H]1O[C@H](COP(=O)(O)OP(=O)(O)O)[C@@H](O)[C@H]1O
ΔH (GUK1 (Homo sapiens, UniProt Q16774); ITC; molar ratio 0.4975): -2.48 kcal/mol

COc1cc(/C=C/c2ccc(O)cc2)cc(OC)c1
binding stoichiometry (O-methyltransferase (Sorghum bicolor, UniProt A0A1B6PFV1); ITC; concentration not given, with: SAH+): 1.02 ± 0.006

O=C(c1ccc(C(=O)N2CCC(N3CCCC3)CC2)c(Nc2ccccc2)c1)N1CCC(N2CCCC2)CC1
diffusion coefficient (Lethal(3)malignant brain tumor-like protein 3, MBT domains (Homo sapiens, UniProt Q96JM7); FRAP; human cells; 0.1 µM): 0.311 µm2/s

CC(=O)Nc1ccc(O)cc1
chemical shift change (BRD4 (Homo sapiens, UniProt O60885); 19F NMR, refers to: tyrosine 119; 375 µM; reference: free protein): 0.022 ppm

Cc1nn(-c2nc3c(F)cc(F)cc3s2)c(O)c1C(c1ccc(C(F)(F)F)cc1)c1c(C)nn(-c2nc3c(F)cc(F)cc3s2)c1O
inhibition (Cgas (Mus musculus, UniProt Q8C6L5); enzyme activity, inhibitor, pyrophosphatase-coupled; 100 µM, 1.5 h, mouse enzyme): 98.9%

CN[C@H](CC(C)C)C(=O)N[C@H]1C(=O)N[C@@H](CC(N)=O)C(=O)N[C@H]2C(=O)N[C@H]3C(=O)N[C@H](C(=O)N[C@H](C(=O)O)c4cc(O)cc(O)c4-c4cc3ccc4O)[C@H](O)c3ccc(c(Cl)c3)Oc3cc2cc(c3O[C@@H]2O[C@H](CO)[C@@H](O)[C@H](O)[C@H]2O[C@H]2C[C@](C)(N)[C@H](O)[C@H](C)O2)Oc2ccc(cc2Cl)[C@H]1O
binding (T2, aptamer DNA; competitor, fluorescence; pH 7.4, MgCl2 10 mM): binds

Nc1ncnc2c1ncn2[C@@H]1O[C@H](COP(=O)(O)CP(=O)(O)OP(=O)(O)O)[C@@H](O)[C@H]1O
calcium influx (P2X purinoceptor 1 (P2RX1, Homo sapiens, UniProt P51575, E122A); calcium influx; 100 µM; reference: ionomycin response): 94.3% and 95.2% and 89.7%

Nc1nc2c(ncn2[C@@H]2O[C@H](COP(=O)(O)O)[C@@H](O)[C@H]2O)c(=O)[nH]1
reaction rate (GUK1 (Homo sapiens, UniProt Q16774, R44A); enzyme activity, NADH-coupled; 250 µM): -0.564 s⁻¹ and -0.171 s⁻¹ and -0.839 s⁻¹

NCCS(=O)(=O)O
normalised MST signal (SLC6A6 (Homo sapiens, UniProt P31641, S402A); binding, microscale thermophoresis; 977 nM, room temperature, with: 50 nM labelled protein; higher = more binding): -0.00438

COc1ccc(/C=C2\SC(=O)N(Cc3nc4ccccc4s3)C2=O)cc1OC
Hill slope (AKR1B1; enzyme activity, inhibitor): -0.805

CCCCC[C@H](O)/C=C/[C@H]1[C@H](O)CC(=O)[C@@H]1C/C=C\CCCC(=O)O
Emax (PTGER1 (Homo sapiens, UniProt P34995, R66A); IP1 accumulation, agonist; AD293; 1 h, EP1 R66A mutant): 115 ± 4.96%

O=C(COP(=O)(O)O)[C@@H](O)[C@H](O)[C@H](O)COP(=O)(O)O
thermal stability ratio (26S proteasome non-ATPase regulatory subunit 6 (Homo sapiens, UniProt Q15008); thermal proteome profiling, refers to: PSMD6; HepG2 cell lysate; concentration not given, 57 over 37 °C; reference: compound over control): 0.423 and 0.684 and 0.552

CC1=NNC(=S)NC(=O)C1/N=N/c1ccc(S(N)(=O)=O)cc1 (stereo not drawn)
inhibition (bovine α-glucosidase; enzyme activity, inhibitor, glucose oxidase; 500 µg/mL, with: maltose): 36.7%

Cc1cc(Nc2ccc(C(F)(F)F)cc2)n2ccnc2n1
robust Z-score (pyrD; enzyme activity, inhibitor, colorimetric HTS, refers to: DCIP reduction; 3 µM; direction not given): 25.2

Nc1ncnc2c1ncn2[C@@H]1O[C@H](COP(=O)(O)OP(=O)(O)OP(=O)(O)O)[C@@H](O)[C@H]1O
normalized current (P2X purinoceptor 7 (P2rx7, Rattus norvegicus, UniProt Q64663, I214A/Q143A/R125A); ion current, agonist, two-electrode voltage clamp; Xenopus oocytes; 100 µM): 0.123 and 0.175 and 0.144

Cc1cc(Nc2ccc(C(F)(F)F)c(F)c2)n2nc(C(C)(F)F)nc2n1
robust Z-score (pyrD; enzyme activity, inhibitor, colorimetric HTS, refers to: DCIP reduction; 3 µM; direction not given): 19.5

CCc1cc(NC(=O)COc2ccc(Cl)cc2Cl)n(C2CCOCC2)n1
Emax (Kir3.1/Kir3.4; thallium flux, activator; HEK293; reference: standard compound): 81%

CC/C=C(\C)C=O
conversion (Enoyl-ACP reductase (Thermus thermophilus, UniProt P83818); substrate, biocatalytic transformation; pH 7, 30 °C, aerobic, with: NADH): 19%

COc1ccc(/C=C2\SC(=O)N(Cc3nc4ccccc4s3)C2=O)cc1
Hill slope (AKR1B1; enzyme activity, inhibitor): -0.569

CC1=NN(c2cc(Cl)ccc2Cl)C(=O)C1=NNc1ccc(S(N)(=O)=O)cc1
inhibition (bovine α-glucosidase; enzyme activity, inhibitor, glucose oxidase; 100 µg/mL, with: maltose): 33.3%

CC(=O)SCCNC(=O)CCNC(=O)[C@H](O)C(C)(C)COP(=O)(O)OP(=O)(O)OC[C@H]1O[C@@H](n2cnc3c(N)ncnc32)[C@H](O)[C@@H]1OP(=O)(O)O
Ki (Carnitine O-acetyltransferase (CRAT, Columba livia, UniProt P52826); stopped-flow global fit; pH 7.8, ambient, ordered bi-bi mechanism): 164 µM

C[C@H](N)C(=O)Nc1ccc2ccccc2c1
Km (rat aminopeptidase III; substrate): 10 µM

CSc1nc2nc(C)cc(Nc3ccc(C(F)(F)F)c(F)c3)n2n1
robust Z-score (pyrD; enzyme activity, inhibitor, colorimetric HTS, refers to: DCIP reduction; 3 µM; direction not given): 23.2

O=c1nc(SCc2cc(F)cc(C(F)(F)F)c2)nc(SCc2ccc3sccc3c2)[nH]1
ATP hydrolysis rate (TOP2A (Homo sapiens, UniProt P11388); ATPase activity; 3.9 µM, with: ATP 2 mM): 1.84 µM/min and 1.98 µM/min

Cc1cc(Nc2ccc(S(F)(F)(F)(F)F)cc2)n2nc(C3CC3)nc2n1
robust Z-score (pyrD; enzyme activity, inhibitor, colorimetric HTS, refers to: DCIP reduction; 3 µM; direction not given): 16.8

O=C(CN1C(=O)S/C(=C\c2ccc(F)cc2)C1=O)c1ccc([N+](=O)[O-])cc1
log IC50 (AKR1B1; enzyme activity, inhibitor): 2.76 log nM

CC(C)[C@H](N)C(=O)Nc1ccc2ccccc2c1
hydrolysis (rat aminopeptidase III; substrate; concentration not given, pH 7.0): inactive

NC1=NC(=O)N([C@H]2C[C@H](O)[C@@H](CO)O2)CN1CCCCCN(CC[C@H](N)C(=O)O)C[C@H]1O[C@@H](n2cnc3c(N)ncnc32)[C@H](O)[C@@H]1O
inhibition type (DNMT1 (Homo sapiens, UniProt P26358); radiometric [3H]-SAM; concentration not given, with: SAM, poly(dI-dC)): inhibited

Cc1nn(C2CCS(=O)(=O)C2)c(C)c1NC(=O)COc1ccc(Cl)cc1Cl (stereo not drawn)
activity (Kir3.1/Kir3.4; activator, thallium flux; HEK293; concentration not given): inactive

Cn1c[n+]([C@@H]2O[C@H](COP(=O)(O)OP(=O)([O-])OP(=O)(O)OC[C@H]3O[C@@H](n4cnc5c(=O)[nH]c(N)nc54)[C@H](O)[C@@H]3O)[C@@H](O)[C@H]2O)c2nc(N)[nH]c(=O)c21
hydrolysis (DCPS (Homo sapiens, UniProt Q96C86); substrate, HPLC; concentration not given, 120 min): 100%

COC(=O)c1ccc(NC(=O)COc2cc(Cl)ccc2Cl)s1
activity (Kir3.1/Kir3.4; activator, thallium flux; HEK293; concentration not given): inactive

Cc1cc2c(NC(=O)c3cccc(C(=O)O)c3)cccc2nn1
ligand efficiency (CREB-binding protein, bromodomain (CREBBP, Homo sapiens, UniProt Q92793); binding): 0.35

O=C(COc1ccc(Cl)cc1Cl)Nc1cc(C2CCC2)nn1C1CCOCC1
Emax (Kir3.1/Kir3.4; thallium flux, activator; HEK293; reference: standard compound): < 10%

O=C(O)c1ccc(Nc2ncc3c(n2)-c2ccc(Cl)cc2C(c2c(F)cccc2F)=NC3)cc1
remaining activity (NEK3(h); kinase activity; 1 µM): 95%

Excerpt of the above:
C[C@]12C[C@H](O)[C@H]3[C@@H](CCC4=CC(=O)CC[C@@]43C)[C@@H]1CC[C@@H]2C(=O)CO
koff (CYP11B1 (Homo sapiens, UniProt P15538, V320A); nanodiscs; 25 °C, fast phase): 2.28 ± 0.3 s⁻¹

O=C(COP(=O)(O)O)[C@@H](O)[C@H](O)[C@H](O)COP(=O)(O)O
thermal stability ratio (26S proteasome non-ATPase regulatory subunit 6 (Homo sapiens, UniProt Q15008); thermal proteome profiling, refers to: PSMD6; HepG2 cell lysate; concentration not given, 57 over 37 °C; reference: compound over control): 0.423 and 0.684 and 0.552

NC/C(=C\F)COc1cccc(Cn2c(=S)[nH]c(=O)c3[nH]cnc32)c1
inhibition (CACNA1C (Homo sapiens, UniProt Q13936); peak ion current, inhibitor, automated patch clamp; 100 µM, pulse 1): 33.6%

NCCS(=O)(=O)O
normalised MST signal (SLC6A6 (Homo sapiens, UniProt P31641, S402A); binding, microscale thermophoresis; 977 nM, room temperature, with: 50 nM labelled protein; higher = more binding): -0.00438

C[C@H](N)C(=O)Nc1ccc2ccccc2c1
Km (rat aminopeptidase III; substrate): 10 µM

CC(=O)SCCNC(=O)CCNC(=O)[C@H](O)C(C)(C)COP(=O)(O)OP(=O)(O)OC[C@H]1O[C@@H](n2cnc3c(N)ncnc32)[C@H](O)[C@@H]1OP(=O)(O)O
Ki (Carnitine O-acetyltransferase (CRAT, Columba livia, UniProt P52826); stopped-flow global fit; pH 7.8, ambient, ordered bi-bi mechanism): 164 µM

CCCCC[C@H](O)/C=C/[C@H]1[C@H](O)CC(=O)[C@@H]1C/C=C\CCCC(=O)O
Emax (PTGER1 (Homo sapiens, UniProt P34995, R66A); IP1 accumulation, agonist; AD293; 1 h, EP1 R66A mutant): 115 ± 4.96%

NCCCCC(=O)O
normalised MST signal (SLC6A6 (Homo sapiens, UniProt P31641, G62A); binding, microscale thermophoresis; 125 µM, room temperature, with: 50 nM labelled protein; higher = more binding): 0.0344
